Measurements pooled from the literature.
A part holds a random share of what one study measured. Values joined by “and” are separate records of one study, mostly repeats; a detail may differ.
Sequence of UniProt P11247 (whole entry, looked up): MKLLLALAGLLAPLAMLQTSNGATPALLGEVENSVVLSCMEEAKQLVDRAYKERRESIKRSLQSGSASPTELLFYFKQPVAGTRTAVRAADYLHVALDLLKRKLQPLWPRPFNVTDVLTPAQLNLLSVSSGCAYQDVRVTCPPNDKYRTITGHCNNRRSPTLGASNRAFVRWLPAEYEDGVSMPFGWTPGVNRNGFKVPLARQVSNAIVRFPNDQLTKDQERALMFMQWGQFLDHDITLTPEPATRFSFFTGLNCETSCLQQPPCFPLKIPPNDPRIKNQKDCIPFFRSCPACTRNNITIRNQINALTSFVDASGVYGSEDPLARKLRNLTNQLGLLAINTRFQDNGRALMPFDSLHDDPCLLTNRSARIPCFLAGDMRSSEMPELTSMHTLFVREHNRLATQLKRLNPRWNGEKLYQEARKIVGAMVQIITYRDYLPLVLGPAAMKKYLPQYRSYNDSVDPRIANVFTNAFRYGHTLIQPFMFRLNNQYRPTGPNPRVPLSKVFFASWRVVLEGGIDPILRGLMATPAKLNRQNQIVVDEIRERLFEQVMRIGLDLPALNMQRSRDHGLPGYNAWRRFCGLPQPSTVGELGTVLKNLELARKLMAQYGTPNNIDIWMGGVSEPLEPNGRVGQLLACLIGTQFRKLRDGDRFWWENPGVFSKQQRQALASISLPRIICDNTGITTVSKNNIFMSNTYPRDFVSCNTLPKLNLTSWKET
Sequence of UniProt Q06187 (whole entry, looked up): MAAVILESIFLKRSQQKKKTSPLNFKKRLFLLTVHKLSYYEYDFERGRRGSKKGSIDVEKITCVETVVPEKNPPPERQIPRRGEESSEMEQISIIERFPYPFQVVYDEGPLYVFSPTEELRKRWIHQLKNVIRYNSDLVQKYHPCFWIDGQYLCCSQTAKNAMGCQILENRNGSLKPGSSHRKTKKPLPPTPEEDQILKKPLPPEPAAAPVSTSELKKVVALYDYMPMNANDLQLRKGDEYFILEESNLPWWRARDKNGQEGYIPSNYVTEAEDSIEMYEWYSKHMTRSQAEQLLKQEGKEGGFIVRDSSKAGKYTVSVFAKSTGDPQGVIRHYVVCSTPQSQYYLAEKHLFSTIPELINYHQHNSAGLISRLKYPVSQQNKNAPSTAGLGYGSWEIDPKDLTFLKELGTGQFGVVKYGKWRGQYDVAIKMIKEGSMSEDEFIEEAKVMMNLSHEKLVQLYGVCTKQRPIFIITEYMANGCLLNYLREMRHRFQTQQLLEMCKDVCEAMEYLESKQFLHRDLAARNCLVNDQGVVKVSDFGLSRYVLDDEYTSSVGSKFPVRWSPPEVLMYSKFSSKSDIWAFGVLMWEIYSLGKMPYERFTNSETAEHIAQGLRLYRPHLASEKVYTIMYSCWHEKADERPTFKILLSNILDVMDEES

Series 1
Species: female CD-1 mouse
Sample: plasma
Route: oral
Dose: 60 mg/kg
| SMILES | AUC(0-t) [ng·h/mL] |
| --- | --- |
| Cc1ccc(O)c(C)c1-c1cnc2[nH]c(-c3cnc(N4CCC5(CC4)CC(N4CCN(c6ccc(NC7CCC(=O)NC7=O)cc6F)CC4)CO5)nc3)cc2c1C#N (centres unmarked) | 8630 |
| Cc1ccc(O)c(C)c1-c1cnc2[nH]c(-c3cnc(N4CCC(CN5CCN(c6ccc7c(c6F)CN(C6CCC(=O)NC6=O)C7=O)CC5)CC4)nc3)cc2c1C#N (centres unmarked) | 10500 |
| Cc1ccc(O)c(C)c1-c1cnc2[nH]c(-c3cnc(N4CCC(CCN5CCN(c6ccc(NC7CCC(=O)NC7=O)cc6F)CC5)CC4)nc3)cc2c1C#N (centres unmarked) | 7540 |
| Cc1ccc(O)c(C)c1-c1cnc2[nH]c(-c3cnc(N4CCC(CN5CCN(c6ccc7c(c6)C(=O)N(C6CCC(=O)NC6=O)C7=O)CC5)CC4)nc3)cc2c1C#N (centres unmarked) | 16400 |
| Cc1ccc(O)c(C)c1-c1cnc2[nH]c(-c3cnc(N4CCC(CN5CCN(c6ccc(NC7CCC(=O)NC7=O)cc6F)CC5)CC4)nc3)cc2c1C#N (centres unmarked) | 28700 |
| Cc1ccc(O)c(C)c1-c1cnc2[nH]c(-c3cnc(N4CCC(CN5CCN(c6cc7c(cc6F)c(N6CCC(=O)NC6=O)nn7C)CC5)CC4)nc3)cc2c1C#N | 10900 |

Series 2
SMILES: CCC1(c2cccc(-c3cn(C)nc3C)c2)C2=C(Nc3n[nH]cc31)C(F)C(C)(C)CC2=O (single isomer, unassigned)
Tested at: 1 µM
| target | read-out | technique | baseline | remaining binding [%] |
| --- | --- | --- | --- | --- |
| Cyclin-dependent kinase 15 (CDK15, Homo sapiens, UniProt Q96Q40) | kinase binding | KINOMEscan | DMSO control | 100 |
| Serine/threonine-protein kinase N1 (PKN1, Homo sapiens, UniProt Q16512) | binding | competition with immobilised ligand | – | 100 |
| Dual specificity tyrosine-phosphorylation-regulated kinase 1A (DYRK1A, Homo sapiens, UniProt Q13627) | kinase binding | KINOMEscan | DMSO control | 69 |
| Tyrosine-protein kinase ZAP-70 (ZAP70, Homo sapiens, UniProt P43403) | binding | competition with immobilised ligand | – | 91 |
| Tyrosine-protein kinase BTK (BTK, Homo sapiens, UniProt Q06187) | kinase binding | KINOMEscan | DMSO control | 98 |
| Rho-associated protein kinase 1 (ROCK1, Homo sapiens, UniProt Q13464) | kinase binding | KINOMEscan | DMSO control | 84 |
| Myosin-IIIb (MYO3B, Homo sapiens, UniProt Q8WXR4) | kinase binding | KINOMEscan | DMSO control | 96 |
| Serine/threonine-protein kinase Sgk2 (SGK2, Homo sapiens, UniProt Q9HBY8) | kinase binding | KINOMEscan | DMSO control | 100 |
| Mast/stem cell growth factor receptor Kit (KIT, Homo sapiens, UniProt P10721) | kinase binding | KINOMEscan | DMSO control | 100 |
| Serine/threonine-protein kinase tousled-like 2 (TLK2, Homo sapiens, UniProt Q86UE8) | binding | competition with immobilised ligand | – | 100 |
| Tyrosine-protein kinase JAK1, JH1 (JAK1, Homo sapiens, UniProt P23458) | binding | competition with immobilised ligand | – | 100 |
| Serine/threonine-protein kinase LATS1 (LATS1, Homo sapiens, UniProt O95835) | kinase binding | KINOMEscan | DMSO control | 89 |
| MAP kinase-interacting serine/threonine-protein kinase 1 (MKNK1, Homo sapiens, UniProt Q9BUB5) | kinase binding | KINOMEscan | DMSO control | 100 |
| Tyrosine-protein kinase ABL1, non-phosphorylated (ABL1, Homo sapiens, UniProt P00519, F317I) | binding | competition with immobilised ligand | – | 100 |
| Cyclin-G-associated kinase (GAK, Homo sapiens, UniProt O14976) | binding | competition with immobilised ligand | – | 100 |
| Serine/threonine-protein kinase PLK3 (PLK3, Homo sapiens, UniProt Q9H4B4) | binding | competition with immobilised ligand | – | 83 |
| Death-associated protein kinase 3 (DAPK3, Homo sapiens, UniProt O43293) | kinase binding | KINOMEscan | DMSO control | 100 |
| 3-phosphoinositide-dependent protein kinase 1 (PDPK1, Homo sapiens, UniProt O15530) | kinase binding | KINOMEscan | DMSO control | 100 |
| Hepatocyte growth factor receptor (MET, Homo sapiens, UniProt P08581, Y1235D) | binding | competition with immobilised ligand | – | 100 |
| Activin receptor type-2B (ACVR2B, Homo sapiens, UniProt Q13705) | binding | competition with immobilised ligand | – | 100 |

Series 3
SMILES: C[C@@H]1CN(c2ccc(-c3cc(C(=O)NCCOCCOCCOCCOCCNC(=O)Cn4cc(-c5[nH]cc(C(=O)N[C@@H](CC(N)=O)c6ccc(F)c(Cl)c6)c5-c5ccc(Cl)cc5F)cn4)ccc3F)cc2NC(=O)c2c[nH]c(=O)cc2C(F)(F)F)C[C@H](C)N1C
Read-out: thermal unfolding
Technique: differential scanning fluorimetry
Tested at: 5.5 µM
Direction: higher = more unfolded
DCAF1: DDB1- and CUL4-associated factor 1 (DCAF1, Homo sapiens, UniProt Q9Y4B6)
Sequence of UniProt Q9Y4B6 (whole entry, looked up): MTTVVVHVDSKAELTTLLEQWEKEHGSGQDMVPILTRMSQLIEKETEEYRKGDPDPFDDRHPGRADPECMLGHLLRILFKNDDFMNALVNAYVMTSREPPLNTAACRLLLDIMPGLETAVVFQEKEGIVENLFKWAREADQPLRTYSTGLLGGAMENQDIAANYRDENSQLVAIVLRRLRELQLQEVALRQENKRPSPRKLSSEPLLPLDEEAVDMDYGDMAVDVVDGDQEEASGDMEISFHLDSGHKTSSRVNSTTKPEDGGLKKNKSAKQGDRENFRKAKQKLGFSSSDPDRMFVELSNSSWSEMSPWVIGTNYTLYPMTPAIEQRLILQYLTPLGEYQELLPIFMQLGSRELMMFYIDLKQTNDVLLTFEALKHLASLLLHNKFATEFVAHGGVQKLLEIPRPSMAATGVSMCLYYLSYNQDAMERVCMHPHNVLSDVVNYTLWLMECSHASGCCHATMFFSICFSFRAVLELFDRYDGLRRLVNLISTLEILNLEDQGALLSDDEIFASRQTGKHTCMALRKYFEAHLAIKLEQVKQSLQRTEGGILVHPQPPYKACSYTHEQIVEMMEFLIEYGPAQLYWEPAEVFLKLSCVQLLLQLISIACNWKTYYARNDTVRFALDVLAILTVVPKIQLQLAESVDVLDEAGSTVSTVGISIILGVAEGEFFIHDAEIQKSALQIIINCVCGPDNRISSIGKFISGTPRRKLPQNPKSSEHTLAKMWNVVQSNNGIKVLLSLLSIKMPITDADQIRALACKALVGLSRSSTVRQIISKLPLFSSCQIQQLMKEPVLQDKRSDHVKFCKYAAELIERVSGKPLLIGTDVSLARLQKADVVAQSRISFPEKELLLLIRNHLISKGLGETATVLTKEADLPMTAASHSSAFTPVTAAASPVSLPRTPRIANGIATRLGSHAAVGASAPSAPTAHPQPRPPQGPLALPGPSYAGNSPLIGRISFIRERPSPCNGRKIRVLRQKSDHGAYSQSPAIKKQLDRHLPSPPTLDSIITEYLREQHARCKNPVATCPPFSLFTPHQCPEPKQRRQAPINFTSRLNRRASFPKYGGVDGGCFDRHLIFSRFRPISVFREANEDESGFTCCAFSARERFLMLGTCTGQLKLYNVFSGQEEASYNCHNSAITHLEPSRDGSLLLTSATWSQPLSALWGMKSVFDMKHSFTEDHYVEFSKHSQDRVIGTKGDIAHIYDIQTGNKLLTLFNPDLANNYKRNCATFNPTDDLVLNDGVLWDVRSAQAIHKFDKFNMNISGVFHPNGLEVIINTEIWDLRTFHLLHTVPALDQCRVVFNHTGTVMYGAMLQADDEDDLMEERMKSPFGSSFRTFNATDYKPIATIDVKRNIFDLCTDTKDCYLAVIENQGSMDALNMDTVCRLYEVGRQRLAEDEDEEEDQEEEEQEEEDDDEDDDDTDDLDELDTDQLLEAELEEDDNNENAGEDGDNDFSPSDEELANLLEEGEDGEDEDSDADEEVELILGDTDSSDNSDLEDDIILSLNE
WDR5: WD repeat-containing protein 5 (WDR5, Homo sapiens, UniProt P61964)
| target | temperature | SYPRO Orange fluorescence [a.u.] |
| --- | --- | --- |
| DCAF1 | 58.21 °C | 29700 |
| WDR5 | 93.01 °C | 40300 |
| WDR5 | 66.81 °C | 7080 |
| DCAF1 | 87.01 °C | 37800 |
| DCAF1 | 82.01 °C | 42500 |
| WDR5 | 73.81 °C | 9290 |
| DCAF1 | 92.01 °C | 33200 |
| WDR5 | 47.8 °C | 14400 |
| DCAF1 | 74.01 °C | 50300 |
| WDR5 | 89.61 °C | 43400 |
| DCAF1 | 61.21 °C | 44100 |

Series 4
Structure (SMILES): Cc1ncsc1-c1ccc(C(CO)NC(=O)C2CC(O)CN2C(=O)C(C(C)C)n2cc(-c3ccc(COc4c(-c5c(C)c(F)cc6[nH]ncc56)c(C5CC5)cc5c(N6CC7CC6CN7)nc(OC6CCOCC6)nc45)cc3)nn2)cc1 (centres unmarked)
| species | route | dose | time | body weight |
| --- | --- | --- | --- | --- |
| mouse, PK-59 xenograft | – | 3 mg/kg | day 4 | 24.7 g |
| mouse, PK-59 xenograft | – | 1 mg/kg | day 14 | 24.5 g and 30.4 g and 26.1 g |
| mouse, A-375 xenograft | sc | 30 mg/kg once daily | day 3 | 19.8 g and 18.7 g and 18.8 g and 17.7 g |
| mouse, lung LXFA sample A PDX | – | 10 mg/kg twice weekly | day 9 | 26.5 g |
| mouse, A-375 xenograft | sc | 30 mg/kg once daily | day 13 | 19.2 g and 18.3 g and 19.3 g and 20.4 g and 18.1 g |
| mouse, PK-59 xenograft | – | 30 mg/kg | day 14 | 26 g and 24.2 g and 26.1 g |
| mouse, PK-59 xenograft | – | 30 mg/kg | day 17 | 26.3 g and 23 g and 24.3 g and 24.8 g |
| mouse, PK-59 xenograft | subcutaneous | 30 mg/kg once daily | day 13 | 21.4 g and 19.5 g and 20.6 g and 19 g and 18.4 g |
| mouse, lung LXFA sample B PDX | – | 10 mg/kg twice weekly | day 0 | 22.6 g and 27 g |
| mouse, PK-59 xenograft | subcutaneous | 30 mg/kg once daily | day 15 | 19.7 g and 18.1 g and 20.1 g and 19.6 g |

Series 5
SMILES: CNc1ncc2cc(-c3cc(OC)cc(OC)c3Cl)c(=O)n(CCc3ccc(NC(=O)C(C#N)=CC(C)(C)N4CCOCC4)cc3)c2n1
Read-out: kinase activity
| target | tested at | inhibition [%] |
| --- | --- | --- |
| G protein-coupled receptor kinase 6 (GRK6, Homo sapiens, UniProt P43250) | 0.1 µM | -2 |
| Serine/threonine-protein kinase pim-3 (PIM3, Homo sapiens, UniProt Q86V86) | 0.1 µM | 3 |
| MAP/microtubule affinity-regulating kinase 4 (MARK4, Homo sapiens, UniProt Q96L34) | 1 µM | 0 |
| Proto-oncogene tyrosine-protein kinase receptor Ret (RET, Homo sapiens, UniProt P07949) | 1 µM | 45 |
| Dual specificity mitogen-activated protein kinase kinase 2 (MAP2K2, Homo sapiens, UniProt P36507) | 0.1 µM | -5 |
| Tyrosine-protein kinase receptor TYRO3 (TYRO3, Homo sapiens, UniProt Q06418) | 0.1 µM | -1 |
| Cyclin-dependent kinase 3, with cyclin E (CDK3, Homo sapiens, UniProt Q00526) | 0.1 µM | -4 |
| Rho-associated protein kinase 1 (ROCK1, Homo sapiens, UniProt Q13464) | 1 µM | -5 |
| 5'-AMP-activated protein kinase catalytic subunit alpha-1, with beta1, gamma1 (PRKAA1, Homo sapiens, UniProt Q13131) | 0.1 µM | -3 |
| MAP kinase-interacting serine/threonine-protein kinase 2 (MKNK2, Homo sapiens, UniProt Q9HBH9) | 0.1 µM | 5 |
| Serine/threonine-protein kinase pim-1 (PIM1, Homo sapiens, UniProt P11309) | 0.1 µM | -2 |
| TRAF2 and NCK-interacting protein kinase (TNIK, Homo sapiens, UniProt Q9UKE5) | 0.1 µM | 1 |
| Serine/threonine-protein kinase Nek1 (NEK1, Homo sapiens, UniProt Q96PY6) | 0.1 µM | 10 |
| Ephrin type-A receptor 2 (EPHA2, Homo sapiens, UniProt P29317) | 0.1 µM | 1 |
| Tyrosine-protein kinase Srms (SRMS, Homo sapiens, UniProt Q9H3Y6) | 0.1 µM | 0 |

Series 6
SMILES: CCN1/C(=C/C=C2\CCCC(/C=C/C3=[N+](CC)c4ccccc4C3(C)C)=C2NCCCCCCCCN2CCC(Nc3nc4ccccc4n3Cc3ccc(F)cc3)CC2)C(C)(C)c2ccccc21
Cell line: U-87 MG
Tested at: concentration not given
Baseline: DMSO
| measured | log2 fold change |
| --- | --- |
| PCDH18 mRNA | -2.51 |
| YJU2B mRNA | 0.819 |
| KY | -2.22 |
| OBSL1 mRNA | -1.04 |
| ZMYM5 mRNA | 0.803 |
| STEAP1B mRNA | -1.13 |
| KIF24 mRNA | -1.79 |
| HS3ST2 mRNA | 3.24 |
| ZC3H12C mRNA | 2.07 |
| MARCHF4 mRNA | -1.3 |
| HMGB1 mRNA | -1.01 |
| CCNB1IP1 mRNA | 1.19 |
| BRAT1 mRNA | -0.806 |
| DNAJC22 mRNA | -1.28 |
| ORC1 mRNA | -1.75 |
| FANCD2 mRNA | -1.76 |

Series 7
Target: Cyclin-dependent kinase 12, with cyclin K (CDK12, Homo sapiens, UniProt Q9NYV4)
Sequence of UniProt Q9NYV4 (whole entry, looked up): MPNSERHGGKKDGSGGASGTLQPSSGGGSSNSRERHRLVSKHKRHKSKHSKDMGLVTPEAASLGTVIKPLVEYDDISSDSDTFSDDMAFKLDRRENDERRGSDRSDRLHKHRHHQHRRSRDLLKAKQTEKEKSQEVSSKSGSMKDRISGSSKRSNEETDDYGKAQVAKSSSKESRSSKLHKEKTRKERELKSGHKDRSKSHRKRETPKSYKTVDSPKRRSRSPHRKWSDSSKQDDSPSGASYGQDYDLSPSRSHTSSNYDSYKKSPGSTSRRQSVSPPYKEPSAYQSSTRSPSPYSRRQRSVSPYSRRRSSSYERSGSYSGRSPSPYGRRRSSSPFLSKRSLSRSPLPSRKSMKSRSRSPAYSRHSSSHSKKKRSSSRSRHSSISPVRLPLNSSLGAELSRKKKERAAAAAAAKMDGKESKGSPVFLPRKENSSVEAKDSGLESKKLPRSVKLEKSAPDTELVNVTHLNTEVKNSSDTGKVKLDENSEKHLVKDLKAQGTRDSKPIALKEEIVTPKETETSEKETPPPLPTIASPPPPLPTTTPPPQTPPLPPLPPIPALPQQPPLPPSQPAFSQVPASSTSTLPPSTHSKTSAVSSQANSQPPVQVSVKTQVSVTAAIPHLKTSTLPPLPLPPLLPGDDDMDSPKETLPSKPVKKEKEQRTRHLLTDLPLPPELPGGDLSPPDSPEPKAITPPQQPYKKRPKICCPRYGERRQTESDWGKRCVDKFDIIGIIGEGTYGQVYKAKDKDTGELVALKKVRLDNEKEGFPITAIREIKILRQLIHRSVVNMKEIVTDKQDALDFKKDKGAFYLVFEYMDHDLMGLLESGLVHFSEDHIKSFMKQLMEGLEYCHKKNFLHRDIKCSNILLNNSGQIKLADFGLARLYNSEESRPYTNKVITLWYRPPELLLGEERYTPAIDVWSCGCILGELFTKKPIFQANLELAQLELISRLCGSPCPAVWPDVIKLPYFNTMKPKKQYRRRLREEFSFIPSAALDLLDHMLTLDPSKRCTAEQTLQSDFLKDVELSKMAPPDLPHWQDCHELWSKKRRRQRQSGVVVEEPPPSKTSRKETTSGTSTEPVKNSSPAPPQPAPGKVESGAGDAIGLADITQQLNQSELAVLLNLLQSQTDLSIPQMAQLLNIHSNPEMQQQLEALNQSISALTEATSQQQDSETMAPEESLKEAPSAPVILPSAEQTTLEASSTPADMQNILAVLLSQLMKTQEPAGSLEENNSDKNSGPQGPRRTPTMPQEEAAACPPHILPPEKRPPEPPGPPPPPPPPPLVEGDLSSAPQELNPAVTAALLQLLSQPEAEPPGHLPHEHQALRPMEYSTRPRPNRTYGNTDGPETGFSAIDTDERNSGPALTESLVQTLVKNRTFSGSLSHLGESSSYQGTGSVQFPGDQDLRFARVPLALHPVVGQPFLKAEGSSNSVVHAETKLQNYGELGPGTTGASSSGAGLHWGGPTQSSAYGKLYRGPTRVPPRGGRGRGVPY
Read-out: kinase activity
Action: inhibitor
Technique: ADP-Glo
Tested at: 2 µM
| SMILES | inhibition [%] |
| --- | --- |
| CCn1cnc2c(NCc3nc4cc(Cl)c(Cl)cc4[nH]3)nc(N3CCN(S(C)(=O)=O)CC3)nc21 | 89 |
| CCn1cnc2c(NCc3nc4cc(Cl)c(Cl)cc4[nH]3)nc(N3CCN(c4ccccn4)CC3)nc21 | 66.6 |
| Cn1cc(-n2cnc3c(NCc4nc5cc(Cl)c(Cl)cc5[nH]4)nc(N4CCNCC4)nc32)cn1 | 72.6 |
| CC(=O)N1CCN(c2nc(NCc3nc4cc(Cl)c(Cl)cc4[nH]3)c3ncn(-c4cnn(C)c4)c3n2)CC1 | 87.6 |
| CCn1cnc2c(NCc3nc4cc(Cl)c(Cl)cc4[nH]3)nc(N3CCN(C(=O)[C@H](C)NC(C)=O)CC3)nc21 | 83.3 |
| CCn1cnc2c(NCc3nc4cc(Cl)c(Cl)cc4[nH]3)nc(N3CCC(NC(C)=O)CC3)nc21 | 87.6 |
| CCn1cnc2c(NCc3nc4ccc(F)c(F)c4[nH]3)nc(N3CCn4ncnc4C3)nc21 | 87.1 |
| CCn1cnc2c(NCc3nc4cc(Cl)c(Cl)cc4[nH]3)nc(N3CCN(C(C)=O)CC3)nc21 | 91.3 |
| CCn1cnc2c(NCc3nc4cc(Cl)c(Cl)cc4[nH]3)nc(N3CCn4ncnc4C3)nc21 | 92.9 |
| CCn1cnc2c(NCc3nc4cc(Cl)c(Cl)cc4[nH]3)nc(N3CCN(C(=O)CNC(C)=O)CC3)nc21 | 90.2 |

Mixed results
MPO: Myeloperoxidase (MPO, Homo sapiens, UniProt P05164)
Sequence of UniProt P05164 (whole entry, looked up): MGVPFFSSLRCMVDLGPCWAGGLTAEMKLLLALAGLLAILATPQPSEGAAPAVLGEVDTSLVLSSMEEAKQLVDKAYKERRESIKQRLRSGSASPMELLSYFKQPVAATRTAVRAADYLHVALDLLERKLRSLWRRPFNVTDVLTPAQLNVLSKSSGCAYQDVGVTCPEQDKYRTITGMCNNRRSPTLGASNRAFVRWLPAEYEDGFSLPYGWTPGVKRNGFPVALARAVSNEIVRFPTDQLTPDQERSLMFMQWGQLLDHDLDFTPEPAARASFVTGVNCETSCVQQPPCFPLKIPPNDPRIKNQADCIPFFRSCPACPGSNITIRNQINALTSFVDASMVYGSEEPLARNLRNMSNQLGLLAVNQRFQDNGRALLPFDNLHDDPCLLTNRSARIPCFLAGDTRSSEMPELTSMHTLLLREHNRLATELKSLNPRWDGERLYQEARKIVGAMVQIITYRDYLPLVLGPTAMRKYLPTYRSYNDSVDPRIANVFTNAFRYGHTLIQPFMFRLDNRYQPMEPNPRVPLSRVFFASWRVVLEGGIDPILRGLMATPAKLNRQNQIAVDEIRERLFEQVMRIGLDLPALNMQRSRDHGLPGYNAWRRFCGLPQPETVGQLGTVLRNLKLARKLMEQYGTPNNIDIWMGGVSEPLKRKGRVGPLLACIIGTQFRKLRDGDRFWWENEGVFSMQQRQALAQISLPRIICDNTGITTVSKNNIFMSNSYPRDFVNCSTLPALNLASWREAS
| Compound | target | test | system | conditions | quantity | value |
| --- | --- | --- | --- | --- | --- | --- |
| C=C(CN)COc1cccc(Cn2c(=S)[nH]c(=O)c3[nH]cnc32)c1 | MPO | enzyme activity, inhibitor, fluorescence | – | 1.4 nM | inhibition | 9.11% |
| CC(C)(C)NC(=O)c1ccc(OC/C(=C/F)CN)cc1 | MPO | enzyme activity, inhibitor, fluorescence | – | 4.6 nM | inhibition | -16.4% and -9.45% and -10.4% |
| NC/C(=C\F)COc1cccc(Cn2c(=S)[nH]c(=O)c3[nH]cnc32)c1 | Myeloperoxidase (Mus musculus, UniProt P11247) | ELISA, measured: myeloperoxidase | mice, zymosan or thioglycolate peritonitis, peritoneal lavage | 30 mg/kg | protein level | 2170 ng/mL and 2620 ng/mL and 2140 ng/mL |
| O=c1[nH]c(=S)n(C[C@H]2CCCO2)c2nc[nH]c12 | MPO | enzyme activity | – | 0.0137 µM | inhibition | 4.24% and 10.6% and 19.6% and 0.109% and 1.52% and 14.6% |
